Results of several laboratories.
Parts stem from different laboratories: compare values within a part only.

Study 1
Target: RING finger protein unkempt homolog, zinc fingers 1-6, GST-SBP tag (UNK, Homo sapiens, UniProt Q9C0B0, residues 30-357)
Chain of UniProt Q9C0B0 (30-357, looked up): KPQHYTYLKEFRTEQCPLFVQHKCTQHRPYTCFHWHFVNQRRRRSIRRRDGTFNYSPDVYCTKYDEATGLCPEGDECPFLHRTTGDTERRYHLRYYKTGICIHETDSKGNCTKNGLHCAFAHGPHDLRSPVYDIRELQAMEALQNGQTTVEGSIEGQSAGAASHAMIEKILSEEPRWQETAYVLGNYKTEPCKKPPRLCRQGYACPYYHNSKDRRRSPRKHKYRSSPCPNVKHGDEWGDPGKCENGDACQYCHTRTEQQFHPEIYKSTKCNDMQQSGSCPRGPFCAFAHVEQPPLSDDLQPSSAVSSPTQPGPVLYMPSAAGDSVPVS
Technique: RNA Bind-n-Seq
Form: RNA
Sample: in vitro
Tested at: not given
Setting: RNA with constant flanks, human and mouse sites, ends assumed
Relative to: input RNA pool
Direction: higher = stronger binding
Sequence | bound/input enrichment [ratio]
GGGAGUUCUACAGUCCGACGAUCUUGGAUGGGGCUUCUUCUCUUUAGGUUUGUGUUUGCCCUCCCGCCUGCUUCUGGUUUGUAACUAGCACAGUCCCGCCACUCAGCACACUCAGUAUUACCGUGGAGCUGUGGGGUUCUUGCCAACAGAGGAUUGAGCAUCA | 1.51
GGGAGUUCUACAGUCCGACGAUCUCGUAUAUCAGAUAUCUGGGACCCAAAGUCCCAACCUUUACAAACCUGGGUCUCUGUUUUAUAGAAUUUAAAAUACCUGGGAUUCAGGACCCUGUGUGCACCAAUAUCCGGGGUUCAUCCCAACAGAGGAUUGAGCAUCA | 0.679
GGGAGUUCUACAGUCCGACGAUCGCAGAUGAAGUAGAGUUUACUGUGGUUCCUGAUAUGCUCUCUGCUCAAAGAAAUCAUGCUAUUAGGAUUAAAAAACUUCCCAAGGGCACGGUUUCAUUUCAUUCCCAUUCAGAUCACCGUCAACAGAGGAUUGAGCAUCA | 0.249
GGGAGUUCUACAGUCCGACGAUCAAUGGUACUCUCUAUGAACAGCACGUUGAUGAGUGGAAUAUCGGCCGGCUGAAGACCAUCCUGGACCUGGUGGAGAAGGAGAGCGGGAUCACCAUUGAGGGGGUGAACACCCCCUACCUUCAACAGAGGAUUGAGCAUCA | 0.148
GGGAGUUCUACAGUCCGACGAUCAUAGAAGCAGAUUUGGGAUAUCCUGGAGGUAAAGCAAGAAUUAUUCAUAAGGAAUCUGAUAUCAUUACUGCGUUUGCUGUUAAUAAGGCAAAUAGAAACUGCAUAGCAAUCGCUUCCAGUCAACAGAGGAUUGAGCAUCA | 0.415
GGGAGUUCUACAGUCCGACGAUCUGUUCCCAGUCACCCUCCCCCACCCCCUCUACCAAGCAGGAUUCUGAUCUUUGGUGUGUUGUGUUAAGACUCUCCCAAGUGGGUCUGGCUGCCCCUUGCCCAUUGCUCACUGGGGACUACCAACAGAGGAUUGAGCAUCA | 0.962
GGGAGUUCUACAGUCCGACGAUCGAGAAUCAGGGCUACACUGGUACCCUGGUGGGCCCGAUGUGAAACUCCUGUCAAACAACCAACUUUUAAAUGGUUUGCUAGGACUAUUUCUGUAUUGAAAGUUUCUAAUUAUGCUUUUUACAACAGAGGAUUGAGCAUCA | 0.305
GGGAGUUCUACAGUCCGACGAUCCAUAAAAACCAAACACUUCUCUAUAAUCUUUUUGACAUUUCUCAGUCUGCACAGACCCCAAUAGCAGUUAUUGGUCUUACAUGUAGAUUGGAUAUUUUGGAACUCUUAGAAAAAAGAGUGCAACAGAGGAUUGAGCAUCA | 0.88
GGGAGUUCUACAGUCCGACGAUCAACUUAGAUAAACUGACCAGCUACUCAUGUGUAUGUACUGAACCUCCAAACCCCAGCAAUGAAACUCUAGCACAAUGGAAGAAAGAUAAUAUAACAGCACACAAUAUUUCCUGGAGAAAUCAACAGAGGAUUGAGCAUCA | 0.961
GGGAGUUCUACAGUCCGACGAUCUCCACCAGUGAUGCCUUCUGGAAAUCACCAAAUUCCUCGUCGAGGAUUUCACCCCUAGUGUUGUUUUCCAAUUUGCCUGUGAACCAUAAAAUGGAGCACAAUAAUAAUGACACUCAACAGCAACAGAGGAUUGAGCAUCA | 0.168
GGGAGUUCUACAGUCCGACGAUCACAGUUAUAUUGUUGAGUUUCAUUUUCAUAUAUUCUUGUAGUGUCUGCUUGCCUGUGACUUCUGGUAAAAUAAAAUAAGCCUUUGAAAAUAUUUUAGCAUGGUAUUUAACAUUUUCUAAACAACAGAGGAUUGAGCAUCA | 1.77

Study 2
Target: Histone acetyltransferase KAT6A, both winged helices, GST fusion (KAT6A, Homo sapiens, UniProt Q92794, residues 1-181)
Technique: protein binding microarray
Form: double-stranded DNA, one strand shown
Sample: in vitro
Tested at: not given
Setting: 8-mer, flanks averaged, mean of 2 arrays, mostly near background
Relative to: not given
Direction: higher = stronger binding
Construct (chain): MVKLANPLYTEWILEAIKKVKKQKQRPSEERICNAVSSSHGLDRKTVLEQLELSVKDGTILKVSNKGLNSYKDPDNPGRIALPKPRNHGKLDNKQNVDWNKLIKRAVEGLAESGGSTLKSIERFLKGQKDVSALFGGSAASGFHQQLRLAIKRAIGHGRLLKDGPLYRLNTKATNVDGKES
Sequence | E-score
AATAACTG | -0.0405
GAAGTCGA | -0.113
CGATAGAA | 0.00136
ACTTCGTA | -0.128
CATTTGTA | -0.13
ACCCTACA | -0.248
AGATCAAT | -0.151
AGTCAAGA | -0.138
AGTTGGCG | 0.0652
GGTAGTTA | -0.00762
CACCTCTA | -0.112
CAACGCTC | -0.0473
GGCTAGTA | -0.106
TGACGCCA | -0.0142
GTGAAGAA | 0.0658
AGTGGTGG | -0.249
ACATAGTG | -0.0816
CATTATGG | 0.0354
AGGTATAC | -0.0607
AGCATCCT | -0.14
CACGTGAG | -0.0303
AGGTCGTC | -0.013

Study 3
Target: RNA binding protein fox-1 homolog 2, RRM domain, GST-SBP tag (RBFOX2, Homo sapiens, UniProt O43251-10, residues 100-194)
Technique: RNA Bind-n-Seq
Form: RNA
Sample: in vitro
Tested at: 365 nM
Setting: natural RNA segment, single round, ends assumed
Relative to: no-protein control
Direction: higher = stronger binding
Target sequence (chain): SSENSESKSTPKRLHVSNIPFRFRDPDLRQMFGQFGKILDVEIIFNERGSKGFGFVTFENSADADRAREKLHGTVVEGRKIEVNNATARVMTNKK
Sequence | RBNS enrichment (R)
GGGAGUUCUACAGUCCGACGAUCUUCUGGAACUUGCUGUAUAGUCCAGGCUGGCCUCAAACUCAGAGAUCCACCUGCCUCUGCCCCCUGAUGCUGCCACCAUACCCAGCUGGUUUUAUCUUUUAAUGAUAACUUGGAAUUCUCGGGUGCCAA | 0.252
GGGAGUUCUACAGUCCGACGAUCAACACCAGACUGAAGCACAUGUAAUAUAGACUGUGUAUGUUUACAAUGUUGUGUAUAAAUGGGACACUUUGCCCUCUACCACCUCCCCUUUGGUUGUAUGAUUUUCUUCUUGGAAUUCUCGGGUGCCAA | 0.449
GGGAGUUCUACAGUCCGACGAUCCCAAAUGUCUUGACUGUGUUGUUUUUAAUCACUGUGACCCUUAAAGUACAGGCCAAGUGUUGUCAAACACCUUGGCUAAAACAGUGGAGGGUGAUGGGUAAAGCAGUAGAUGGAAUUCUCGGGUGCCAA | 0.219
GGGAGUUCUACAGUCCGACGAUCCUGGAAAUAGUUCAUCAAGUAUGUUUGUUGCUCAUUGUGAUACAUUAAAAACUGUAUCUACAUAUUUACUAUGUGUUUUCUUUCUGAGUUGACUUUGCAAUAUUUGCACAUGGAAUUCUCGGGUGCCAA | 0.566
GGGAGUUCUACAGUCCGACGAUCGGUAGUGCACACCUUGAAUCUGAGCACUAGGAAAACAGGCAGGUGGAUUUUUGAGUUCAAGACCAGAGUGGUCUACAGAGUGAGUUCUACAACAGCCAGGGCUACAUAGAUGGAAUUCUCGGGUGCCAA | 0.481
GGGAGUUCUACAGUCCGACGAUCCACAACAUGUGCCUUGCUCUCCCGAGGACAAGUAUUAACUUUUAAAUAAUAUCCGCGCACACAGACGCAUGCCCUGCACGCAUAGUUACAAACAGACAAAUGAUUACAUGUGGAAUUCUCGGGUGCCAA | 10.9
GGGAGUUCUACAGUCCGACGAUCCCAGGACCCUGGGACAUAGAUAAAGCCCGCCUCCAGUCCCUGGGUGCUGGAACAGAUUGUCUGGGAGGCUAGAGCCCUGCCUGUAGAGAAAACACUCUUCUCAGGAGUAGUGGAAUUCUCGGGUGCCAA | 0.438
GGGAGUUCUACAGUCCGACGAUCAUAGAGUUCUCACACCGUUCAAUUUUGCACAUAUGUCCUCAUGGAUCCCCAGUUUUGUCCCUCCACUUGGGCACACGAGGUCUCAGGGGUCCUCAACCUGGGUCUGUGCCUGGAAUUCUCGGGUGCCAA | 0.64
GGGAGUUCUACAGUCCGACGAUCUUUCUAUAAGAAGAAAAUUAAGACCACUUAUUUGAAAACAAAGAUGAAAUGUCACCACCCGUUUGCGCUCUCAUUCCUUCCAAGCCUGUGACUGGUAUUUUCUCAUGAUGUGGAAUUCUCGGGUGCCAA | 0.409
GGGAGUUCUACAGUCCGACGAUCAGAGGGAAGCUCUAACAUUGCCUCUGUAAUAUAAUGCUAGUGACUGUAUGUAGUACAUGUUAUAUGUGUAUAAUCUUUUUACUGAUAGACUGGAAACAUGUCAUCAUUUUUGGAAUUCUCGGGUGCCAA | 0.388
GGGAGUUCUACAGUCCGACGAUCCUGGAGUGAGGGUCAGAACUGAUUUGUUCUGUCUAUGUUUCAGCACUGGUGUGUGUUCUCUAUAAGCUCCUGGCCCACUUGGCUUCACUUGAGCAGAAUGACUUGACUGAUGGAAUUCUCGGGUGCCAA | 0.655
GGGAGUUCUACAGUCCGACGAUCUAUGCAAGCAAACACACUCUCACCUCCUCUCCCAGCCUCCCGGAGCUCUGAGCACGCCCCACGCAUGGUGCAGGAGGGACUGGACAGAUCUGAGGAAGGCCGUAAAAUGGUGGAAUUCUCGGGUGCCAA | 6.56

Study 4
Target: Ras GTPase-activating protein-binding protein 1, full length (G3BP1, Homo sapiens, UniProt Q13283)
Chain of UniProt Q13283 (whole entry, looked up): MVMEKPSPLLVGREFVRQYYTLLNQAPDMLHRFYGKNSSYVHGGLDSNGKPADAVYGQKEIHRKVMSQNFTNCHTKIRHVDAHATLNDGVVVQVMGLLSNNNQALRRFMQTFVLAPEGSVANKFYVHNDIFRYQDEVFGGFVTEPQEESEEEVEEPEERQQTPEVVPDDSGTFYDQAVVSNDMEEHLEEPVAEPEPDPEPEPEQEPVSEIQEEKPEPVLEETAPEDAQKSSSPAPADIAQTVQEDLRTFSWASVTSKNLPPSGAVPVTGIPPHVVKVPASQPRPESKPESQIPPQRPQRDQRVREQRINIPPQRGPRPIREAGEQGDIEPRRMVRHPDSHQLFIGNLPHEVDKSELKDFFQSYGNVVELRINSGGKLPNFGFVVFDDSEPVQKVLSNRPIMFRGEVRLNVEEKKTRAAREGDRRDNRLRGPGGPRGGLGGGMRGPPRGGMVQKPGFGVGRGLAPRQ
Technique: RNA Bind-n-Seq
Form: RNA
Sample: in vitro
Tested at: 200 nM
Setting: whole 134-nt RNA, ends assumed
With: 150 mM KCl
Relative to: input library
Direction: higher = stronger binding
Sequence | log2 enrichment
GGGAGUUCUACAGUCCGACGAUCACCGUGCAGGUGGGCAUCUUUGGGAAGUGGGGCAAGGGGGGGAUAGGGAGGGGGGUAACACUUUGGGAACAGGUGGUCCCAGGUCGUUUCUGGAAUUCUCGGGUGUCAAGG | 1.23
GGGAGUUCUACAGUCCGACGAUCUAACUUUAGAGGAGGAUCUGAUGGAUAUGGCAGUGGACGUGGAUUUGGGGAUGGCUAUAAUGGGUAGGGAGGAGGACCUGGAGGUGGCAAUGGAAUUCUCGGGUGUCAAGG | 0.646
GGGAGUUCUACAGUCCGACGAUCUCAAGUCCUGUGCUACACAUCGUAUGUACCGAAUCGGGUGGGUGGGUUUUUGGGAAAGUAUUAUGUUACGCCGUUCGGAUCUGCACUUCCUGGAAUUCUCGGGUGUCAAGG | 0.469
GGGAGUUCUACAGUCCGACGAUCAGUCCUGUGCUACACAUCGUAUGUACCGAAUCGGGAAAAAGGGAAAAAGGAAAAAGGGAAAGUAUUAUGUUACGCCGUUCGGAUCUGCACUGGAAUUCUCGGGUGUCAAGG | -0.902
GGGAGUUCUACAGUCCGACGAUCAGUCCUGUGCUACACAUCGUAUGUACCGAAUCGGGAAAAAGGGAAAAAGGGAAAGGGAAAGUAUUAUGUUACGCCGUUCGGAUCUGCACUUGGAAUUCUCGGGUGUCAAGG | -0.338
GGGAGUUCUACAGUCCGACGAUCUGGGAGGUGGAUUUUGUUUAUUUUUUUAGCUCAUUUCCAGGGGUGGGAAUUUUUUUUUAAUAUGUUUCAUGAAUAAAGUUGUUUUUGAAAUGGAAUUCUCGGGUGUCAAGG | -0.0876
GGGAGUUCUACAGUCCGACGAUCUGGCCCUGGUGGCAUGCGGGGAGGAAGAGGUGGCCUCAUGGAUAGUGGUGGUCCCGGUGGAAUGUUCAGAGGUGGCCGUGGUGGAGACAGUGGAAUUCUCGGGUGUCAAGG | 0.414
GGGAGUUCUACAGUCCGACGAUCAGUCCUGUGCUACACAUCGUAUGUACCGAAUCGGGUUUUGGGUUUUGGGGUUUUGGGAAAGUAUUAUGUUACGCCGUUCGGAUCUGCACUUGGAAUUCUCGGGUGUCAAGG | -0.12
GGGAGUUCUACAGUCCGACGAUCCCUCAAGUCCUGUGCUACACAUCGUAUGUACCGAAUCGGUGGGGUGGGGUGGGAAAGUAUUAUGUUACGCCGUUCGGAUCUGCACUUCCAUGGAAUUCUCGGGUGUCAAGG | 1.22
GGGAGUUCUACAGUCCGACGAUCUUCAGGAUUGUGAGGGUGAAACUCCCAUUCACAAGGCAGCUCGCUCUGGGAGCCUAGAAUGCAUCAGUGCCCUUGUGGCGAAUGGGGCUCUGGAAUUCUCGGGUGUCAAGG | -1.38

A few entries again (study 2):
Sequence | E-score
AGCATCCT | -0.14
CATTTGTA | -0.13
GGCTAGTA | -0.106
AGATCAAT | -0.151
ACCCTACA | -0.248
